Measurements collected from several papers.
Parts stem from different laboratories: compare values within a part only.

Study 1
Target: Sal-like protein 4, full length isoform B (SALL4, Homo sapiens, UniProt Q9UJQ4-2, residues 1-616)
Technique: universal PBM
Molecule type: double-stranded DNA, one strand shown
Matrix: in vitro
Concentration: not given
Notes: 8-mer, flanks averaged, mean of replicates
Direction: higher = stronger binding
Target sequence (chain): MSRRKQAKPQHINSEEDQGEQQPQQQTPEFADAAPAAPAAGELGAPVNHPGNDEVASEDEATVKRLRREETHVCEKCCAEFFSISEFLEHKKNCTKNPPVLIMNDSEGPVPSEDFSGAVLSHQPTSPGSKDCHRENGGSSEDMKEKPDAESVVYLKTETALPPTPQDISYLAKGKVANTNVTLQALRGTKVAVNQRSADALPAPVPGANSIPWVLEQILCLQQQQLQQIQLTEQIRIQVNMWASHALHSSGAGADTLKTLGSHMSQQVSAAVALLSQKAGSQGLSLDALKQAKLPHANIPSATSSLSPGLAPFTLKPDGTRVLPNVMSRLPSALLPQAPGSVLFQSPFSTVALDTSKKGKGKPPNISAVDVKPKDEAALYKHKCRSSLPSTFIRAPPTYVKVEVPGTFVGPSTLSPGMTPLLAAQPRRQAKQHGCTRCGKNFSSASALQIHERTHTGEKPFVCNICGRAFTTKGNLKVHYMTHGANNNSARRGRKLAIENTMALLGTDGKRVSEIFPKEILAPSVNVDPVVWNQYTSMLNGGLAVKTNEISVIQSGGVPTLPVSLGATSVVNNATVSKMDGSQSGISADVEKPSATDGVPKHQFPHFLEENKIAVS
Strand	E-score
AGCGAAGC	-0.246
ACTGCCAT	0.0858
AACGAGCT	-0.169
CGCTAAAC	-0.0126
ATGTTGCA	0.142
GCACCGCC	-0.402
ACGTCGAG	-0.181
ATTCGTTC	0.14
GACGTGAA	-0.00815

Study 2
Target: RNA binding protein fox-1 homolog 2, RRM domain, GST-SBP tag (RBFOX2, Homo sapiens, UniProt O43251-10, residues 100-194)
Technique: RNA Bind-n-Seq
Molecule type: RNA
Matrix: in vitro
Concentration: 365 nM
Notes: natural RNA segment, single round, ends assumed
Baseline: no-protein control
Direction: higher = stronger binding
Construct (chain): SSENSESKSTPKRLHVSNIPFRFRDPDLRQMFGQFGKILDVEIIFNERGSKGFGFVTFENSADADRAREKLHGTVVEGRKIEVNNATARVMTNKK
Strand	RBNS enrichment (R)
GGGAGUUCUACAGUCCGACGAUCCCGCGCCCUACAGUACCUCAGGAUCAUGGCGGGUAGCAAGUAGCAUCCCACUGCAGUGAUGGAUAUGCAUCUUUUACUUCUUGCUCCUUCUGCCCCUGGGUCCAUGUAUCUGGAAUUCUCGGGUGCCAA	0.89
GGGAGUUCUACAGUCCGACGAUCUCAUGGCAUUGGUAAAUAUGGCAACGACUCCUACCGGAUCUUUUGUGUCAAUGAAUGGAAGCAGGUGCACCCUGAAGACCACAAGUUAAAUAAAUACCAUGACUGGCUUUUGGAAUUCUCGGGUGCCAA	1.1
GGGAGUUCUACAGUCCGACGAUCCUCUUCCAGCAUGGAGGGUACCAUGGCCCGUAGGAGCCUGGGGUUCCUAGCAAACGGGAGGAAACCAGCUCCUGUGUGCCUCUGACGACUGUUGUCUGUGCCAACCUAAGUGGAAUUCUCGGGUGCCAA	0.67
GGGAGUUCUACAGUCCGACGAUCGGGUGGAGUUGGGGGCGCCUUUUGUUGAGGAGGUUGGAAUGUGGGCUCUAGGGCUGUGCACUUUCCACUUUCCGGAGGAAUAGAGUUUUUCUUUUUUUCAACUCUCCAUCUGGAAUUCUCGGGUGCCAA	0.569
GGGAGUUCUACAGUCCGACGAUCUUAAGGCUAGCCUAGAAGGGCCAAACAUGUCCUUAUUGACAAAGCUGGUCUUUGUCGCCUAAUUAGGGUAUCCUAGCUAUGUUCCAUUUCUAGUAAGGGGCUGUAGUUAGUGGAAUUCUCGGGUGCCAA	0.419
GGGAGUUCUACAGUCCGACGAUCCGUCAUGGCACUAAGCCACUCAGACCAGCUACCUGUGACCCUGGUUCUCCAAGAAGCAGACGUUGGUCUAAGCCUUCAAGAGCUGCCUUAGGGUUUGGGAGAAGUUGGAAUGGAAUUCUCGGGUGCCAA	0.244
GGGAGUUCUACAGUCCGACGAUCUGGGAAAGUAUGCACAAAAGAGACUCCCUACAUAGCUCAGAGACUACAGUGCCAAAAUGCCCCAGAGAGGCUCCAUUACUUCUGGAGCCUACAAAGCUGUUCCCUGAUGUUGGAAUUCUCGGGUGCCAA	0.363
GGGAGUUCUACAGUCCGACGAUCAAGAUAUUUCAGUCUAGGAAAGAUUUUCCUUCUCUUGGAAUGUGAAGAUCUGUCGAUUCAUCUCCAAUCAUAUGCAUUGACAUACACAGCAAAGAAGAUAUAGGCAGUAAUGGAAUUCUCGGGUGCCAA	0.374

Study 3
Target: Histone acetyltransferase KAT6A, winged helix 2, GST fusion (KAT6A, Homo sapiens, UniProt Q92794, residues 85-181)
Technique: protein binding microarray
Molecule type: double-stranded DNA, one strand shown
Matrix: in vitro
Concentration: not given
Notes: 8-mer, flanks averaged, mean of 2 arrays, mostly near background
Baseline: not given
Direction: higher = stronger binding
Residues (chain): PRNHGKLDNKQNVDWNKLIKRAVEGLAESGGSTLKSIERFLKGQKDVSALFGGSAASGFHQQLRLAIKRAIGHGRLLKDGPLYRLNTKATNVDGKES
Strand	E-score
CGCACGGC	0.124
CTCCCGTC	0.128
AAAACTCG	0.143
AGGAAGCA	0.0961
ATATGATC	0.11
CAACGCGC	0.134
ACCGCAGG	0.153
CGGCAACA	0.0753
CTATATAA	-0.136
ACCTGCCT	0.0871

Other studies, line by line
Substance	target	assay	system	conditions	scale	measurement	result
PhoQ, residues 284 288 289 292 302 303 ALAMYF	PhoP, residues 12 14 15 18 19 GHCSL (Escherichia coli, UniProt P23836)	Sort-seq, measured: YFP reporter	E. coli	PhoQ-PhoP variant library, added: 10 µM Mg2+	baseline: high Mg2+ state, higher = stronger signaling	fold induction	18.6

Excerpt of the above (study 2):
Strand	RBNS enrichment (R)
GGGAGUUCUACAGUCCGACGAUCUUAAGGCUAGCCUAGAAGGGCCAAACAUGUCCUUAUUGACAAAGCUGGUCUUUGUCGCCUAAUUAGGGUAUCCUAGCUAUGUUCCAUUUCUAGUAAGGGGCUGUAGUUAGUGGAAUUCUCGGGUGCCAA	0.419
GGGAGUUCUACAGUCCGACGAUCCGUCAUGGCACUAAGCCACUCAGACCAGCUACCUGUGACCCUGGUUCUCCAAGAAGCAGACGUUGGUCUAAGCCUUCAAGAGCUGCCUUAGGGUUUGGGAGAAGUUGGAAUGGAAUUCUCGGGUGCCAA	0.244
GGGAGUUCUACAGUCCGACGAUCUGGGAAAGUAUGCACAAAAGAGACUCCCUACAUAGCUCAGAGACUACAGUGCCAAAAUGCCCCAGAGAGGCUCCAUUACUUCUGGAGCCUACAAAGCUGUUCCCUGAUGUUGGAAUUCUCGGGUGCCAA	0.363
